Assay results collected from several papers.
Several values in a cell are separate wells, animals, samples, runs or records.

CC(O)CNCC(C)O.O=C(O)C(Cl)Cl (stereo not drawn)  inhibition (Chenopodium album; herbicidal activity; 15 mg/mL, 21 days, pre-emergence greenhouse): 0%
O=c1[nH]cc(C(c2cccc(Cl)c2)c2c[nH]c(=O)[nH]c2=O)c(=O)[nH]1  inhibition (HIV-1 subtype C; p24 antigen production, p24 ELISA; 125 µg/mL): 63%
CN1CCCNC(=O)c2cccc(c2)C(=O)NCCCN(C)CCCNc2cccc3c2C(=O)c2cccc(c2C3=O)NCCC1  log2 fold change (SAS; RNA-Seq, item: KCMF1 mRNA; 1 µM, 6 h; baseline: untreated cells): -0.525
Cc1cc(C(=O)N(C)CC2CCCN(CCc3ccc(F)cc3)C2)c(C)o1 (stereo not drawn)  translation activity (Trypanosoma cruzi; reporter mRNA translation, inhibitor, item: Renilla luciferase mRNA; cell-free extract; concentration not given, test 1; baseline: positive over negative control): 105%
O=c1[nH]cc(C(c2cccc(C(F)(F)F)c2)c2c[nH]c(=O)[nH]c2=O)c(=O)[nH]1  inhibition (HIV-1 subtype C; p24 antigen production, p24 ELISA; 7.8 µg/mL): < 25%
COC1CN([C@H]2CC[C@H]([C@@]3(C)Oc4c(Cl)cc(C(=O)NCc5c(SC)cc(C)[nH]c5=O)c(C)c4O3)CC2)C1  log2 fold change (RNA-seq, item: A3GALT2; human, whole blood; dose not given, 24 h; baseline: pretreatment baseline): 2.13
C[N+](C)(C)CCO.O=C([O-])C(Cl)Cl  inhibition (Chenopodium album; herbicidal activity; 15 mg/mL, 21 days, post-emergence greenhouse): 0%
CN(C)CCCSC(=S)N1CCN(C(=O)/C=C/c2coc3ccccc3c2=O)CC1  inhibition (TMV; virus inactivation; 500 µg/mL): 79% and 78% and 81%
Cc1ncsc1-c1ccc(C(C)NC(=O)C2CC(O)CN2C(=O)C(NC(=O)CCCCCCCCCCN2CCCC(Nc3ncc(Cl)c(Nc4ccccc4S(=O)(=O)C(C)C)n3)C2)C(C)(C)C)cc1 (stereo not drawn)  log2 fold change (22Rv1; RNA-seq, item: ZSCAN20 mRNA; concentration not given; baseline: DMSO): -1.88
Nc1ncc(-c2cc(-c3cnn(CC(F)(F)F)c3)ncc2F)nc1C(=O)NC1CNCC(F)C1 (stereo not drawn)  remaining binding (AKT1; KINOMEscan; 1 µM; baseline: DMSO control): 99%
COc1ccc(CNc2nc([C@H]3CC[C@H](C(=O)O)CC3)nc3sc4ccccc4c23)cc1Cl  inhibition (Cryptosporidium parvum; parasite growth, immunofluorescence imaging; HCT-8, Iowa; 18 µM): 91.7% and 93.6%
C[N+]1=C2C=C(NCCc3c[nH]c4ccccc34)C(=O)c3[nH]cc(c32)CC1  inhibition (Saccharomyces cerevisiae; cell growth, liquid culture; BY4741; 100 µM, 24 h): 62.3%
Cc1ccccc1C(c1c[nH]c(=O)[nH]c1=O)c1c[nH]c(=O)[nH]c1=O  inhibition (HIV-1 subtype C; p24 antigen production, p24 ELISA; 125 µg/mL): 48%
O=C1C(NCCc2ccc(O)cc2)=CC2=NCCc3c(Br)[nH]c1c32  inhibition (Saccharomyces cerevisiae; cell growth, liquid culture; BY4741; 100 µM, 24 h): 7.9%
CCCCNCCO.O=C(O)C(Cl)Cl  inhibition (Chenopodium album; herbicidal activity; 15 mg/mL, 21 days, pre-emergence greenhouse): 0%

Repeated from above:
Nc1ncc(-c2cc(-c3cnn(CC(F)(F)F)c3)ncc2F)nc1C(=O)NC1CNCC(F)C1 (stereo not drawn)  remaining binding (AKT1; KINOMEscan; 1 µM; baseline: DMSO control): 99%
COc1ccc(CNc2nc([C@H]3CC[C@H](C(=O)O)CC3)nc3sc4ccccc4c23)cc1Cl  inhibition (Cryptosporidium parvum; parasite growth, immunofluorescence imaging; HCT-8, Iowa; 18 µM): 91.7% and 93.6%
